# Experimental data collected from several papers.
# Each numbered part is a random draw from the data of one study; scales do not carry over between parts.

# Block 1
# Target: Ras GTPase-activating protein-binding protein 1, full length (G3BP1, Homo sapiens, UniProt Q13283)
# Chain of UniProt Q13283 (whole entry, looked up): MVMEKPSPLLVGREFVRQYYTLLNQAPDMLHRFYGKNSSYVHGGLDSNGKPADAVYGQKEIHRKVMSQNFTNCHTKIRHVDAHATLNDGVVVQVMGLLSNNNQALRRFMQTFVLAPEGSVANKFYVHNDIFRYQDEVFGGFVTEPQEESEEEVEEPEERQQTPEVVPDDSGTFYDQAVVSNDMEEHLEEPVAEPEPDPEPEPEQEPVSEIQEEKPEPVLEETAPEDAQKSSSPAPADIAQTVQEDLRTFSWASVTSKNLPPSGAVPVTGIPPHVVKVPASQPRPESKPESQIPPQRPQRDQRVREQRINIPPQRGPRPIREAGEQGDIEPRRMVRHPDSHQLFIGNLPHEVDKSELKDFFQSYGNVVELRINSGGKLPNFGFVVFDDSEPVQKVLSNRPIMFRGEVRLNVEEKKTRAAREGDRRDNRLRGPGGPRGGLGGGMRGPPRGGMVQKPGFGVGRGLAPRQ
# Technique: RNA Bind-n-Seq
# Molecule type: RNA
# Matrix: in vitro
# Concentration: 200 nM
# Setting: whole 134-nt RNA, ends assumed
# Together with: 150 mM KCl
# Baseline: input library
# Direction: higher = stronger binding
Sequence,log2 enrichment
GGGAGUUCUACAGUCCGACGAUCAAGUCCUGUGCUACACAUCGUAUGUACCGAAUCGGGGUUUUGGUUUUGGUUUUGGGGAAAGUAUUAUGUUACGCCGUUCGGAUCUGCACUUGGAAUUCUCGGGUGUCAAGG,-0.901
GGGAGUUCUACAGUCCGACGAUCAAGUCCUGUGCUACACAUCGUAUGUACCGAAUCGGGGCCCGGGGCCCGGGCCCGGGAAAGUAUUAUGUUACGCCGUUCGGAUCUGCACUUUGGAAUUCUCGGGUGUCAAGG,-1.14
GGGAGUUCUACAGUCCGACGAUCAGUCCUGUGCUACACAUCGUAUGUACCGAAUCGGUUUUUGGUUUUUUUGGAAAAAGGAAAGUAUUAUGUUACGCCGUUCGGAUCUGCACUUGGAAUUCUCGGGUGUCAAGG,-1.52
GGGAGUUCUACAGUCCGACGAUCUGUGCUACACAUCGUAUGUACCGAAUCGGGAAAAAAAGGGAAAAAAAGGGGAAAAAAAGGGGAAAGUAUUAUGUUACGCCGUUCGGAUCUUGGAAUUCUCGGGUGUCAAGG,-0.618
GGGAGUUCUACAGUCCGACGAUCUCCUGUGCUACACAUCGUAUGUACCGAAUCGGGGAAAAAGGGGUUUGGGGUUUUUGGGGAAAGUAUUAUGUUACGCCGUUCGGAUCUGCAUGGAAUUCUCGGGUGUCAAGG,0.635
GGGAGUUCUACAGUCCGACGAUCUACAGACAACACGCACCCACACAGACACAGAGGGAAGGGGUUGGGAUGGGGACAGGGUGCACAGCAGGGCGGGGUAGGACCCCAGCCCCUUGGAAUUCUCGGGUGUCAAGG,1.83
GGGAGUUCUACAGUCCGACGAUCUGGGAGGUGGAUUUUGUUUAUUUUUUUAGCUCAUUUCCAGGGGUGGGAAUUUUUUUUUAAUAUCUGUCAUGAAUAAAGUUGUUUUUGAAAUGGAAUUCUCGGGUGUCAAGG,0.189
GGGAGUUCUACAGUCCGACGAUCUGCAGAUUGAUGAGUAUGAUCACUCCAAGCCCAUCCAGGGGCAACAGAAGAAGCCCUUUGAGGUGCACUGGAGGAAGCACACCCUGUCCUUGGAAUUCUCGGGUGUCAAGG,-1.81
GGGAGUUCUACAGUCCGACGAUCGUCCUGUGCUACACAUCGUAUGUACCGAAUCGGGGUUUGGGGUUUUUGGGGAAAGGGGAAAGUAUUAUGUUACGCCGUUCGGAUCUGCACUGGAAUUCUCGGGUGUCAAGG,0.772

# Block 2
# Target: RNA binding protein fox-1 homolog 2, RRM domain, GST-SBP tag (RBFOX2, Homo sapiens, UniProt O43251-10, residues 100-194)
# Technique: RNA Bind-n-Seq
# Molecule type: RNA
# Matrix: in vitro
# Concentration: 365 nM
# Setting: natural RNA segment, single round, ends assumed
# Baseline: no-protein control
# Direction: higher = stronger binding
# Target sequence (chain): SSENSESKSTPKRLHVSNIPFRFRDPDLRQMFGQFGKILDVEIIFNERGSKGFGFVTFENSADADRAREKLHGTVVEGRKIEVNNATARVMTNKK
Sequence,RBNS enrichment (R)
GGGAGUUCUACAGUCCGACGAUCUCAGUCCUUGCUGUUGAUGGAGCUGGGAGGAGGAGGGACCUAAGGACUCAGGACAGAGCAUCUCACGCGAAGUUCUGUGUGGCAGUCAAGUGUUCCUCGUGGAGUCAGCCUGGAAUUCUCGGGUGCCAA,0.284
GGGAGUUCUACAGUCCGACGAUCAUGCUUGCCUCGCAUAGAGUGCAGUUGGUAUUCAUUUACCUAUGUGCGCCAGUUUGGGUUGCCGUUACCAGUUCAAUAUAGCCCUGCAUUUAAAAUUCCUUUUAAGAUUCUGGAAUUCUCGGGUGCCAA,0.748
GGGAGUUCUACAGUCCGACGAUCAAACUAAGGCUAUCAAGGAGUGAGAUAGAAUGAAGACACUCCUAUUUCUCCUCCAGCCAGGGUUGCUAGAGCUCAAGGGCACAGUGAUAGGCACCUGGGCAUAAAGGACCUGGAAUUCUCGGGUGCCAA,2.8
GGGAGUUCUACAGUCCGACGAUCCGACUCAAGGGACGUGUGUACAUAUGUAAAUGAGAAAUAGAGACGUGUCAACAGAUGCAUUCAUUUCUCUUGGAAUGUGUAUUGUUUUUAUUUUGCGAAACAAAACAAAAUGGAAUUCUCGGGUGCCAA,0.292
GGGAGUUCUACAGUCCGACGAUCGUGAGAUUUUCAUCCAAAGCCACACUCCUAGCCUAAGGCACUUCAUCUUUACGAUAUAAAAUGAUGGCUCUCAAAUGAUUUUUCCAUCCAUUGUCCCGAUCCAGCUAUCAUGGAAUUCUCGGGUGCCAA,0.301
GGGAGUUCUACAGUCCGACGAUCUAUGUCUUUAAAUUUUGGUAAAUAUGUAGAUACCAAGCAUUAAUAACUAAUGCACACAGAAAUUUAAUAUACAGCAAUUCUUUGAAUGUUCCAGGUGUACGUAAACUAACUGGAAUUCUCGGGUGCCAA,4.31
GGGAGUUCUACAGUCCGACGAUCGUCCUUCAUUUGGCCAGCUAACAUUCUGUCGAGCACCUGCAUUGUGCUGGAUUCAUGCUUCCAGAUGUGAGAUGUGUGUUCUAAUCUGACAGUGUGUUUUGUAAUCUGUCUGGAAUUCUCGGGUGCCAA,0.957
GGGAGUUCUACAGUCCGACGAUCAUUGAUUUUAACCCUGAGGUUACAAAGCAGAAGUUAAAUGAACAGCUAGAGGAAGCAGCCUUCCCACACGUCAGCACCGUAUGCUAAUUUGCUGGAACAGGACGGUUUGGUGGAAUUCUCGGGUGCCAA,1.78

# Block 3
# Target: Interferon regulatory factor 7, full length, phosphomimetic (IRF7, Homo sapiens, UniProt Q92985, residues 1-503, S471D/S472D/S475D/S476D/S477D/S483D/S484D/S487D)
# Chain of UniProt Q92985 (whole entry, unmodified, looked up): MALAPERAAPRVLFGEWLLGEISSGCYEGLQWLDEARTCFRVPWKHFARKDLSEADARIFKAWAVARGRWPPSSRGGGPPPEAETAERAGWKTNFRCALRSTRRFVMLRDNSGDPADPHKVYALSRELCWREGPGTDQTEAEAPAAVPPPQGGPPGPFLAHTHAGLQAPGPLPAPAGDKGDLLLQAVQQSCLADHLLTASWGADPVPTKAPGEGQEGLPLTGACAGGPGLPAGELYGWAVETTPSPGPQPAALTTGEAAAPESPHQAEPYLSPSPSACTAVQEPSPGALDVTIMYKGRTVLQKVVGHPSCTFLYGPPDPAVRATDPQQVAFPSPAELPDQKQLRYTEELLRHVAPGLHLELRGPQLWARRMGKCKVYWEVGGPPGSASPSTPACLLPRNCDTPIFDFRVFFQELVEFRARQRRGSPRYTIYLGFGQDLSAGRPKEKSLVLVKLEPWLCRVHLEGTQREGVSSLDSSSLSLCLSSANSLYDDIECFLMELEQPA
# Technique: protein-binding microarray
# Molecule type: double-stranded DNA, one strand shown
# Matrix: in vitro
# Concentration: 2200 nM top
# Setting: 60-bp whole probe
# Together with: salmon DNA 0.4 mg/ml
# Baseline: random background probes
# Direction: higher = stronger binding
# Shared flanks, not repeated: GCCTAGCAC … GTCTTGATTCGCTTGACGCTGCTG
Sequence,fitted relative affinity
TTGGGACTGGGTATCGGTTAGTGCTAG,-0.507 z-score
ACAGGTTCTCTTTTATTTTTGTGCTAG,1.74 z-score
TTAGGTCTCCTTTCCCTTTAGTGCTAG,3.51 z-score
TTAGGTTTCGCTTTCGGTTAGTGCTAG,16.2 z-score
TTAGGTTTCGGGTTTCGGTTGGTGCTA,12 z-score
GACGGTATCGACACTGGGGGCGTGCTA,0.186 z-score
GACGATTTCAGACTGGAGATGTGCTAG,0.488 z-score
TCAATTTCCACTTTGACACTGTGCTAG,3.46 z-score
GACGGTTTCGGTCTCGGTACGTGCTAG,6.86 z-score
TTAGGACTTGACACTGGGTTAGTGCTA,-0.359 z-score
GACGGTGCCGGTTTCGGGACGTGCTAG,2.26 z-score
TTAGGACTGGGTCTCAGTTAGTGCTAG,-0.452 z-score
TGAGGTATCGGACTGGGTTAGTGCTAG,-0.258 z-score
TTAAGTATCCTTATCCTTTAGTGCTAG,1 z-score
GACGGTTTCGACGATCGGGACGTGCTA,1.48 z-score
GACGATATCGGGTTTCGATACGTGCTA,2.44 z-score
GACGGACTGGACTTTTGGGACGTGCTA,-0.566 z-score
GATTTTTTCTGCTTAGAGCTGTGCTAG,1.41 z-score
TCAATTGGTTGAACATGACTGTGCTAG,0.414 z-score

# Block 4
# Target: RING finger protein unkempt homolog, zinc fingers 1-6, GST-SBP tag (UNK, Homo sapiens, UniProt Q9C0B0, residues 30-357)
# Chain of UniProt Q9C0B0 (30-357, looked up): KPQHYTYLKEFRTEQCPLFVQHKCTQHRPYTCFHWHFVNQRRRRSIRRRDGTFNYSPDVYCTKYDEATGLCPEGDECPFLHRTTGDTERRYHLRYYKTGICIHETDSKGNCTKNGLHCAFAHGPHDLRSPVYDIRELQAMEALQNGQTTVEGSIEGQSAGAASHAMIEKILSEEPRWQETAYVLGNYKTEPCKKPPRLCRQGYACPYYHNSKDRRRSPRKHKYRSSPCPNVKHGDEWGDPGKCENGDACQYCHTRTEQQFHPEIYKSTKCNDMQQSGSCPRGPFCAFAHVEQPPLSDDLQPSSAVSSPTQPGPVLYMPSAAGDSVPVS
# Technique: RNA Bind-n-Seq
# Molecule type: RNA
# Matrix: in vitro
# Concentration: not given
# Setting: RNA with constant flanks, human and mouse sites, ends assumed
# Baseline: input RNA pool
# Direction: higher = stronger binding
Sequence,bound/input enrichment [ratio]
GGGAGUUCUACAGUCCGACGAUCACAAUACUUGAACAUUUUAAUCUUUUGGAAUAUUGUCUUUCUUUGUUAUAACUAUUCAUUUUUAGCUUUUGUCUCCAGUGCAUGAUCUCAUAUUUUUGCUUUUAUUUUUAGUAUAAGAACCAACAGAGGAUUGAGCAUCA,5.64
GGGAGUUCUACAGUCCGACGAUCGGAGGGUCGCAGUCCCUGCAGCCAGCCCCAGCCAGCGACCUGAACCUGGAGGCUUCCGAGGCAAUGAGUUCCGAUUCUGAAGAGGCAUUUGAGACCCCGGAGUCAACGACCCCUGUCAAACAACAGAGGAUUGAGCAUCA,0.0755
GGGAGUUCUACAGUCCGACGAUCCUGUCCUCCUUUGAGAUGCAAGGAUGGGGAUGUGACUAGAUAGAGCAGAACUGUUUACCAAACUUUAGAGUGUGAUAAAAACCAUUUUAAAUAGUGGAAAGAUGAAAUCAAAACCAGUAUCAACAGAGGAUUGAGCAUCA,0.636
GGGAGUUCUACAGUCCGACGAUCCUCCCAAGUGGAGGAACCGCAAAGAACUGACAGAUGGGGUGCCCUGGCCGGCACCCCCUUGUGUAUAACGCCUGUAGACUUGUAUAUGACUCCUUUAAUAUUGUAAAGAUGCUGAUGUACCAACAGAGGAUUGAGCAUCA,0.494
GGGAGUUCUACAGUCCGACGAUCAUUAUAUAUGAUCGUUUUUCUGAUCCUAAGUUUGUUGAGCAGUUAAUCACAUUUCUAUCUUUAGAAGACAGAAAAGGAAGAGAUAAGUUUAGUCCCCGGCGUUUCUGCCUCUUUAAGGGUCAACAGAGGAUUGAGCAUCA,0.192
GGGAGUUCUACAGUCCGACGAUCGGCCGACUCUACCAAGUAGAAUAUGCUUUUAAGGCUAUUAACCAGGGUGGACUUACAUCUGUUGCUGUCAGAGGAAAGGACUGUGCAGUUAUUGUCACACAGAAGAAAGUACCCGACAAACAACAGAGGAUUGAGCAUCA,0.825
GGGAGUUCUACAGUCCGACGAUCAAGGAUUCGUCGCAUCCAGUGGAUUUUCUGGAUGCAUUCAGAACGUUUUACAUGGAUGGACUAUUUACUGAUAUUACCCUUCAGUGUCCUUCAGGCAUAAUCUUCCAUUGUCACCGAGCUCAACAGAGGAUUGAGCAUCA,0.176
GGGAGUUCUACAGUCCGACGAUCCUGAAAUCUGUGGAGAGCACAUCUCCAGAGCCAUCAAAGAUCAUGUUGGUAGAGCCCCCAGUAGCAAAAGUGUUAGAGCCUUCAGAAACCCUUGUGGUAUCAUCAGAGACACCUACUGAGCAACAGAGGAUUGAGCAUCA,0.363

# For quick reference, copied from above (block 1):
Sequence,log2 enrichment
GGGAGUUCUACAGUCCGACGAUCAGUCCUGUGCUACACAUCGUAUGUACCGAAUCGGUUUUUGGUUUUUUUGGAAAAAGGAAAGUAUUAUGUUACGCCGUUCGGAUCUGCACUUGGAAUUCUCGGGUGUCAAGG,-1.52
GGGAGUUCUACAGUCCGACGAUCUGCAGAUUGAUGAGUAUGAUCACUCCAAGCCCAUCCAGGGGCAACAGAAGAAGCCCUUUGAGGUGCACUGGAGGAAGCACACCCUGUCCUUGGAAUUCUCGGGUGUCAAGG,-1.81
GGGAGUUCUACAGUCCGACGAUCUCCUGUGCUACACAUCGUAUGUACCGAAUCGGGGAAAAAGGGGUUUGGGGUUUUUGGGGAAAGUAUUAUGUUACGCCGUUCGGAUCUGCAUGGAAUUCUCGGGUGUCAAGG,0.635
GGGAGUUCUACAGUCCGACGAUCAAGUCCUGUGCUACACAUCGUAUGUACCGAAUCGGGGCCCGGGGCCCGGGCCCGGGAAAGUAUUAUGUUACGCCGUUCGGAUCUGCACUUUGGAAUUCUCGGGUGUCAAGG,-1.14
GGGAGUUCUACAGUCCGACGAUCUACAGACAACACGCACCCACACAGACACAGAGGGAAGGGGUUGGGAUGGGGACAGGGUGCACAGCAGGGCGGGGUAGGACCCCAGCCCCUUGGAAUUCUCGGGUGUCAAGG,1.83
